Published values from different studies.
Protocols differ between the studies behind these lines. ± marks the error that the study gave.
Mapk1: Mitogen-activated protein kinase 1 (Mapk1, Rattus norvegicus, UniProt P63086)
Sequence of UniProt P63086 (whole entry, looked up): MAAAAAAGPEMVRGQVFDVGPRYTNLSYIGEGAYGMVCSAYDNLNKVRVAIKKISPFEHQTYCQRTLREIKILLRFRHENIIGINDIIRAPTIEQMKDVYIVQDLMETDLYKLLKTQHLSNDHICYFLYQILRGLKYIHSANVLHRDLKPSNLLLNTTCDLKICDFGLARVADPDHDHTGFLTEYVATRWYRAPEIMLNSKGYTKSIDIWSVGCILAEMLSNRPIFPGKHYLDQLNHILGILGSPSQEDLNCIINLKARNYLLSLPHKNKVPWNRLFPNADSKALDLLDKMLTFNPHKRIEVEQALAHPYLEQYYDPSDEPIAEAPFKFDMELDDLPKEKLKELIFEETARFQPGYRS
DRD3: D(3) dopamine receptor (DRD3, Homo sapiens, UniProt P35462)
Sequence of UniProt P35462 (whole entry, looked up): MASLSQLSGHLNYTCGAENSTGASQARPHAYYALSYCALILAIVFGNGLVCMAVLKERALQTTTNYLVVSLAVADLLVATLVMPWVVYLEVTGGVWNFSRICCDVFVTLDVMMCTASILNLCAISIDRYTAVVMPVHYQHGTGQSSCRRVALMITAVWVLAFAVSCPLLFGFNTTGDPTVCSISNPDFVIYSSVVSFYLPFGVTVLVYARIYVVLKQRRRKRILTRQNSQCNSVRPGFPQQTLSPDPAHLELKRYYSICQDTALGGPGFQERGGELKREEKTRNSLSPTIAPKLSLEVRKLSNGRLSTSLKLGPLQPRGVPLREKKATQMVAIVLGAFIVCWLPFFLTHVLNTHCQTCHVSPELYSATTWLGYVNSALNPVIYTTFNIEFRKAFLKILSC
CA1: Carbonic anhydrase 1 (CA1, Homo sapiens, UniProt P00915)
Sequence of UniProt P00915 (whole entry, looked up): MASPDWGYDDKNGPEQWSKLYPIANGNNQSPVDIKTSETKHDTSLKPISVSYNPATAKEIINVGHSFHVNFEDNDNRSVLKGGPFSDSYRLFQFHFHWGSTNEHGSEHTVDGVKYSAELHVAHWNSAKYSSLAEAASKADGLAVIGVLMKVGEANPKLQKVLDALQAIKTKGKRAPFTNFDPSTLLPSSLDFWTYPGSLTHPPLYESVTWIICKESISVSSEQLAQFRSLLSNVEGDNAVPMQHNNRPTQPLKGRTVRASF
SCN5A: Sodium channel protein type 5 subunit alpha (SCN5A, Homo sapiens, UniProt Q14524)
Sequence of UniProt Q14524 (whole entry, looked up): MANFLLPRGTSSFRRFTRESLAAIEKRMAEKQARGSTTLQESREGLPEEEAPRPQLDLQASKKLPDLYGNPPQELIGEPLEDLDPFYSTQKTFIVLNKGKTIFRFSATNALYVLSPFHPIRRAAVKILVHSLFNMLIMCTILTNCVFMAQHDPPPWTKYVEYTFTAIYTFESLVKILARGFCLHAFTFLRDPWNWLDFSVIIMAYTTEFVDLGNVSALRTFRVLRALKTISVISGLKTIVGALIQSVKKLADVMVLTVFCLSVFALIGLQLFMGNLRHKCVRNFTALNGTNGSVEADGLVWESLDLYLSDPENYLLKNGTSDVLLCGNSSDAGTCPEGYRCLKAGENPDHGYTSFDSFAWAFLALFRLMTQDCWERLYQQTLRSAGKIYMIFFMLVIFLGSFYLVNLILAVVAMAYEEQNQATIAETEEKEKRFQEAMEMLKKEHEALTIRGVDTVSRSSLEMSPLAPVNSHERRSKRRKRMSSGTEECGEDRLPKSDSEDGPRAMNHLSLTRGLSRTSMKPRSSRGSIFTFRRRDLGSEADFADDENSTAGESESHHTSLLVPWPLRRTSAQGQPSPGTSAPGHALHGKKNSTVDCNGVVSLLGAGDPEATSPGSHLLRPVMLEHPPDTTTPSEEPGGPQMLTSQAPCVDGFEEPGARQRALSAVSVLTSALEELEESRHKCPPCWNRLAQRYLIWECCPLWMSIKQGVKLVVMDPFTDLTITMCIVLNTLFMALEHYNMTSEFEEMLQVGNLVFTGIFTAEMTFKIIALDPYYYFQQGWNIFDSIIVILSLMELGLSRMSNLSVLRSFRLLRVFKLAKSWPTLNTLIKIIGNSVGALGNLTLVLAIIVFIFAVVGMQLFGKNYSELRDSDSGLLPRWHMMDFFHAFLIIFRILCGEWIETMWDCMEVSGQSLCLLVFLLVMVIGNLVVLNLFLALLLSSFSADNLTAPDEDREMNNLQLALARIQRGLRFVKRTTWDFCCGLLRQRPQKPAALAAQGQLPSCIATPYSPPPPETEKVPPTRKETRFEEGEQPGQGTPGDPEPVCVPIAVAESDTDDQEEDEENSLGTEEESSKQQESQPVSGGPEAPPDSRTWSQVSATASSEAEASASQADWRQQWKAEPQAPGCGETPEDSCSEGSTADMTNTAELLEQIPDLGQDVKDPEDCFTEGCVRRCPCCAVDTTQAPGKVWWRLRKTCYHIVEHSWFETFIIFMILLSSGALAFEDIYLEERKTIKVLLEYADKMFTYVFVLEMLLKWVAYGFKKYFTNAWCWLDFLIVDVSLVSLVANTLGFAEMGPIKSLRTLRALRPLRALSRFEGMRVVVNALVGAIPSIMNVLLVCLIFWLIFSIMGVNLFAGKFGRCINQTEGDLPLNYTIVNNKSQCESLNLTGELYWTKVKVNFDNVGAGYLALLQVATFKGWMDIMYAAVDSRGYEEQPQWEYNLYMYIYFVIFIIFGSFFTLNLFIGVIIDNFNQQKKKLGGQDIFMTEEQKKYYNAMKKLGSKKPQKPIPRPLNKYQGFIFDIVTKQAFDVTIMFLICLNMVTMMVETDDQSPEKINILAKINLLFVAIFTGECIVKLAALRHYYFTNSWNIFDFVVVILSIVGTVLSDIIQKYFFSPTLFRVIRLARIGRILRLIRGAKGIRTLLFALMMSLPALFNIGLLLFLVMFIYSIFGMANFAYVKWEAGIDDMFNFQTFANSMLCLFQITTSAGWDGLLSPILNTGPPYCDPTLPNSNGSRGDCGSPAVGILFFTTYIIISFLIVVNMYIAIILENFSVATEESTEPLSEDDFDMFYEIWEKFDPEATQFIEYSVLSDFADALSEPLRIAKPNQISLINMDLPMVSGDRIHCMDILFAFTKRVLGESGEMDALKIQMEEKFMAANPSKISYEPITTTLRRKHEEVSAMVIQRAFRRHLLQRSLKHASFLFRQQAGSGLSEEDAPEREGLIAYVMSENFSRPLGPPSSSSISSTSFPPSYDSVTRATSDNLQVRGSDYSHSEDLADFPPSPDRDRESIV
Sequence of UniProt P00784 (whole entry, looked up): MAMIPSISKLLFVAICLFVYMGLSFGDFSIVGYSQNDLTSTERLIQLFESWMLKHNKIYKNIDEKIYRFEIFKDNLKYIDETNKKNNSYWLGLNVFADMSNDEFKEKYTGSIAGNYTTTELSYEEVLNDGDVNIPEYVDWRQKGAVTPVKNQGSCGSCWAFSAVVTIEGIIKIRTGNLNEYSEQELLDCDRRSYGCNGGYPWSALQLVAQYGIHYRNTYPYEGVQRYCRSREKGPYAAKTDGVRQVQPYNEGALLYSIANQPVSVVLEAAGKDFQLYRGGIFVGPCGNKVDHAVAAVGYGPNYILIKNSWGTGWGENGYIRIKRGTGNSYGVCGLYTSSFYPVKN
Sequence of UniProt P08172 (whole entry, looked up): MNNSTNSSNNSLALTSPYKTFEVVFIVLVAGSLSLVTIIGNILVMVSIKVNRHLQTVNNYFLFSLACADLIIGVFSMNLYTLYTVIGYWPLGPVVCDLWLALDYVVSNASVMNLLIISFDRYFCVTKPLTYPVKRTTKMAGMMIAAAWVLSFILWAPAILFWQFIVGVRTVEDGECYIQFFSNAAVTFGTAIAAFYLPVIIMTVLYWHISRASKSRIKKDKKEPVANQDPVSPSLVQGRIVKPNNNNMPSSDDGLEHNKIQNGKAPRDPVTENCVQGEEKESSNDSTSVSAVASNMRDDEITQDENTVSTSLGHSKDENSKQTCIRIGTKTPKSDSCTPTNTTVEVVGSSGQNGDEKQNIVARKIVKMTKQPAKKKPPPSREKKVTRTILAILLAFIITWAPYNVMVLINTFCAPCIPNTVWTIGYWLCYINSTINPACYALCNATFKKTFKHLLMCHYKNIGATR
Sequence of UniProt O15393 (whole entry, looked up): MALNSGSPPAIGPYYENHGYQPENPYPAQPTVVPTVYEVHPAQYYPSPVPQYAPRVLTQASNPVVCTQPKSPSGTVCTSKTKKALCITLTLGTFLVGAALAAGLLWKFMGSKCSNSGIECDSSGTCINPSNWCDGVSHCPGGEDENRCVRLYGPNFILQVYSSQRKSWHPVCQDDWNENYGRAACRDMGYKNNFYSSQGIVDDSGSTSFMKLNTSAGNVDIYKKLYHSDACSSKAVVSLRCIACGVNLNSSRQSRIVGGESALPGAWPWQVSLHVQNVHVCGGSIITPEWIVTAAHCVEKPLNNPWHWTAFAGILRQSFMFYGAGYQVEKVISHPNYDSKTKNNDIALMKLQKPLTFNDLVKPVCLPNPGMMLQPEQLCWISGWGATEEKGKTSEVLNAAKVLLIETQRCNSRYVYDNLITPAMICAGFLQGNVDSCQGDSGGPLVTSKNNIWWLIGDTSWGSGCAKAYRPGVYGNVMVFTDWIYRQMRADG
Sequence of UniProt Q9GZQ4 (whole entry, looked up): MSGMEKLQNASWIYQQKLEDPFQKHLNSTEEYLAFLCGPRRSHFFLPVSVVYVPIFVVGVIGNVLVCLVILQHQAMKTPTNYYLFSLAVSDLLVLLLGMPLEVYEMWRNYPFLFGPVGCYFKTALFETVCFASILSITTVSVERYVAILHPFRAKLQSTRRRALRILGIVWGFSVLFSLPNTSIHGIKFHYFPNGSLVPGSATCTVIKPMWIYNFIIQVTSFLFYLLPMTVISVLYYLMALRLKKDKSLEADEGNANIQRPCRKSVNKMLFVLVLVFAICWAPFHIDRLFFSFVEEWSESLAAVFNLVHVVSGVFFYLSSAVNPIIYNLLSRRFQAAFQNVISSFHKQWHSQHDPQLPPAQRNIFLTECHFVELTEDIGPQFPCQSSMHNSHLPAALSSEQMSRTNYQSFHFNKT

`CC(C)C[C@H](NC(=O)[C@H](CCCCN)NC(=O)[C@H](CCCCN)NC(=O)[C@H](CCCCN)NC(=O)[C@H](CCCCN)NC(=O)[C@@H]1CCCN1C(=O)[C@H](CCCNC(=N)N)NC(=O)[C@H](Cc1ccccc1)NC(=O)[C@H](CCCCN)NC(=O)[C@H](CCCCN)NC(=O)[C@H](C)NC(=O)[C@@H](N)Cc1ccc(O)cc1)C(=O)N[C@@H](CCCNC(=N)N)C(=O)N[C@@H](CC(C)C)C(=O)N[C@@H](CC(N)=O)C(=O)N1CCC[C@H]1C(=O)O` gave an IC50 of 19.6 µM (Mapk1; enzyme activity, inhibitor, fluorescence; pH 7.4).
`COCCCC1CCCCN1C(=O)Oc1ccc([N+](=O)[O-])cc1` (stereo not drawn) gave an IC50 of > 100 µM (Cholinesterase (BCHE, Homo sapiens, UniProt P06276); enzyme activity, inhibitor, Ellman).
The IC50 of `Cc1ccc(N2CC3CC(C2)N3C)cc1C(=O)NC1(c2ccc3c4c(cccc24)C(=O)N3C)CC1` is reported as > 50 µM (Cytochrome P450 1A2 (CYP1A2, Homo sapiens, UniProt P05177); enzyme activity, inhibitor).
With `COC(=O)Cc1cc2c(cc1C(=O)c1cccc(Br)c1)OCO2` the IC50 was 5.37 µM (Glutamate receptor AMPA 1/2 (Gria1/Gria2, Rattus norvegicus, UniProt P19490+P19491); ion current, antagonist, patch clamp).
The IC50 of `Cc1ccc(NS(=O)(=O)c2c(C)[nH]c(C)c2C(=O)N2CCCC2)cc1` is reported as > 100 µM (DRD3; Go activation, antagonist, BRET; added: dopamine).
For `COc1ccc(S(=O)(=O)Oc2ccc(/C=N/NS(=O)(=O)c3ccc(Cl)cc3)cc2)cc1`, the IC50 was 0.17 µM (CA1; enzyme activity, inhibitor, absorbance).
With `C[C@]12CC[C@H]3[C@@H](CC[C@H]4C[C@H](O)CC[C@@]43C)[C@@H]1CC(=O)C2` the IC50 was 0.12 µM (Androgen receptor (AR, Homo sapiens, UniProt P10275); nuclear translocation, antagonist).
The IC50 of `CCC(C(=O)Nc1ccccc1C)n1cccc2nc(SCc3ccc(F)cc3)nc1-2` (stereo not drawn) is reported as > 100 µM (CAPN1 (Homo sapiens, UniProt P07384); enzyme activity).
`O=C(O)CCn1c(=O)oc2cc(Cl)c(Cl)cc21` has an IC50 of > 100 µM (SCN5A; ion current, inhibitor).
For `CC[C@H](C)[C@H](NC(=O)[C@H](CC(C)C)NC(=O)[C@H](C)NC(=O)[C@H](CCC(=O)O)NC(=O)[C@H](C)NC(=O)[C@H](CCCNC(=N)N)NC(=O)[C@@H]1CCCN1C(=O)[C@H](CCCNC(=N)N)NC(=O)[C@H](CCC(N)=O)NC(=O)[C@H](CCCCN)NC(=O)[C@@H]1CCCN1C(=O)[C@H](C)NC(=O)[C@@H](N)Cc1ccc(O)cc1)C(=O)N[C@H](C(=O)N1CCC[C@H]1C(=O)N[C@H](C(=O)O)[C@@H](C)O)[C@@H](C)CC`, the IC50 was 196 µM (Mapk1; enzyme activity, inhibitor, fluorescence; pH 7.4).
For `Cc1[nH]c(C)c(S(=O)(=O)Nc2ccccc2)c1C(=O)N1CCCC1`, the IC50 was > 100 µM (DRD3; β-arrestin recruitment, antagonist, PathHunter; added: dopamine EC80).
`O=S(=O)(F)c1cccc(S(=O)(=O)Nc2cc(F)c(C3CC3)cc2Cl)c1` has an IC50 of 37 ± 8 µM (GTPase KRas, with RAF (KRAS, Homo sapiens, UniProt P01116); RAF-KRAS interaction, inhibitor, NanoBRET; HEK293T; 24 h).
For `Cc1ncc([N+](=O)[O-])n1CC(O)Cn1cc(CO[C@]2(C(=O)O)C[C@H](O)[C@@H](NC(=O)CF)[C@H]([C@H](O)[C@H](O)CNC(=O)c3ccc(Oc4ccccc4)cc3)O2)nn1` (stereo partly drawn), the IC50 was 0.25 ± 0.04 µM (CD22 (Homo sapiens, UniProt P20273); ligand binding, inhibitor, competitive bead binding flow cytometry; added: 6'SLN(Gc)-PAA-biotin beads).
With `Cc1cc(Cl)ccc1OC(C)C(=O)N1CCc2ccccc21` (stereo not drawn) the IC50 was 0.903 µM (PFF0160c (Plasmodium falciparum, UniProt Q08210); enzyme activity, inhibitor, absorbance).
The IC50 of `O=S(=O)(N/N=C/c1ccc(OS(=O)(=O)c2ccc(Cl)cc2)cc1)c1ccc(Cl)cc1` is reported as 0.166 µM (CA1; enzyme activity, inhibitor, absorbance).
For `O=C(/C=C/c1ccccc1)c1ccc(S(=O)(=O)F)cc1`, the IC50 was 66 µM (P4HB (Homo sapiens, UniProt P07237); enzyme activity, inhibitor).
The IC50 of `CNC(=O)C[C@H](Cc1ccc(F)cc1)NC(=O)[C@@H](Cc1ccc(Cl)cc1Cl)NC(=O)[C@H](N)Cc1ccccc1C#N` is reported as > 10 µM (TMPRSS2 (Homo sapiens, UniProt O15393); enzyme activity, inhibitor).
With `CC[C@H](C)[C@H](NC(=O)[C@H](CC(C)C)NC(=O)[C@@H]1CCCN1C(=O)[C@H](CCC(=O)O)NC(=O)[C@@H]1CCCN1C(=O)[C@H](CCCNC(=N)N)NC(=O)[C@@H]1CCCN1C(=O)[C@H](CCCNC(=N)N)NC(=O)[C@H](CCC(N)=O)NC(=O)[C@H](CCCCN)NC(=O)[C@@H]1CCCN1C(=O)[C@H](C)NC(=O)[C@@H](N)Cc1ccc(O)cc1)C(=O)N[C@H](C(=O)N[C@@H](C)C(=O)N[C@H](C(=O)O)[C@@H](C)O)[C@@H](C)CC` the IC50 was 19.8 µM (Mapk1; enzyme activity, inhibitor, fluorescence; pH 7.4).
The IC50 of `CCCCCCCCCCCCCCCCCC(=O)NC[C@H]1CC[C@H](C(=O)N[C@@H](CCC(=O)NCCCOCCOCCOCCCNC(=O)COCC(=O)N[C@@H](Cc2ccc(O)cc2)C(=O)NC(C)(Cc2ccccc2)C(=O)N[C@@H](CC(C)C)C(=O)N[C@@H](CCCC)C(=O)N[C@@H](CCCNC(=N)N)C(=O)N2CCC[C@H]2C(=O)N[C@@H](CCCNC(=N)NC)C(=O)N[C@@H](CC(N)=O)C(N)=O)C(=O)O)CC1` (stereo partly drawn) is reported as 0.000891 µM (NMUR2 (Homo sapiens, UniProt Q9GZQ4); ligand displacement, radioligand).
`C/C(=N\OCCCN1CCCCC1)c1ccc(C(F)(F)F)cc1` gave an IC50 of 1.05 µM (CHRM2 (Homo sapiens, UniProt P08172); inositol phosphate, antagonist).
For `CC(C)C[C@H](NC(=O)[C@H](C)NC(=O)[C@@H](N)Cc1ccc(O)cc1)C(=O)N[C@@H](CCC(N)=O)C(=O)N[C@@H](CCC(N)=O)C(=O)N[C@@H](CCCNC(=N)N)C(=O)N[C@@H](CCCNC(=N)N)C(=O)N[C@@H](CC(C)C)C(=O)N[C@@H](CCC(N)=O)C(=O)N[C@@H](Cc1c[nH]cn1)C(=O)N[C@@H](CCCNC(=N)N)C(=O)N[C@@H](CC(C)C)C(=O)N[C@@H](CCCNC(=N)N)C(=O)N[C@@H](CC(C)C)C(=O)N[C@@H](CCCNC(=N)N)C(=O)N[C@@H](C)C(=O)O`, the IC50 was 21.8 µM (Mapk1; enzyme activity, inhibitor, fluorescence; pH 7.4).
`O=C1NC2(CC2)COc2ncc(F)cc2[C@H]2COCCN2c2ccn3ncc1c3n2`: “organ-to-body weight ratio” 0.502 ± 0.052% (Sprague-Dawley rat, male, brain; oral, 20 mg/kg/day, 4 weeks, end of treatment).
`C=C1NC(=O)[C@H](CCSC)NC(=O)[C@H](Cc2ccc(O)cc2)NC(=O)[C@H](Cc2c[nH]cn2)NC(=O)CNC(=O)[C@H](CCC(N)=O)NC(=O)[C@H](CC(N)=O)NC(=O)[C@H](Cc2c[nH]cn2)NC(=O)[C@H]([C@@H](C)O)NC(=O)[C@H](CCC(N)=O)NC(=O)[C@H](CO)NC(=O)[C@H](Cc2c[nH]c3ccccc23)NC(=O)[C@H](Cc2c[nH]c3ccccc23)NC(=O)c2ccc(-c3nc(C(=O)OC)cs3)nc2-c2csc1n2` gave an IC50 of 2.7 µM (TNIK (Homo sapiens, UniProt Q9UKE5); enzyme activity, inhibitor, ADP detection).
`CC(C)C[C@H](NC(=O)[C@H]1O[C@@H]1C(=O)O)C(=O)NCCCCN=C(N)N` gave an IC50 of 0.000203 µM (Papain (Carica papaya, UniProt P00784); enzyme activity, inhibitor).
`O=C(c1cc(Cc2n[nH]c(=O)c3ccccc23)ccc1F)N1CC(CNC2CC2)C1` gave an IC50 of 0.0008 µM (PARP1 (Homo sapiens, UniProt P09874); enzyme activity, inhibitor).
With `CC[C@H](C)[C@H](NC(=O)[C@H](CCCCN)NC(=O)[C@H](CC(C)C)NC(=O)[C@H](CCCCN)NC(=O)[C@H](CC(C)C)NC(=O)[C@H](CCCCN)NC(=O)[C@@H]1CCCN1C(=O)[C@H](CCCCN)NC(=O)[C@H](CO)NC(=O)[C@H](CCCNC(=N)N)NC(=O)[C@H](CCCCN)NC(=O)[C@H](CCCNC(=N)N)NC(=O)[C@H](C)NC(=O)[C@@H](N)Cc1ccc(O)cc1)C(=O)N[C@H](C(=O)N[C@@H](CC(N)=O)C(=O)O)[C@@H](C)CC` the IC50 was 0.694 µM (Mapk1; enzyme activity, inhibitor, fluorescence; pH 7.4).
The IC50 of `Cc1cc(Nc2ccc(Cl)cc2)n2nc(C(F)(F)F)nc2n1` is reported as 7.96 µM (PFF0160c (Plasmodium falciparum, UniProt Q08210, E182D); enzyme activity, inhibitor, absorbance).
`CC(C)C[C@H](NC(=O)[C@H](CCC(N)=O)NC(=O)[C@H](CC(N)=O)NC(=O)[C@H](C)NC(=O)[C@@H](N)Cc1ccc(O)cc1)C(=O)N[C@@H](CCCCN)C(=O)N[C@@H](Cc1ccccc1)C(=O)N[C@@H](CCCNC(=N)N)C(=O)N[C@@H](CCCCN)C(=O)N[C@@H](CCCCN)C(=O)N[C@@H](CCCCN)C(=O)N[C@@H](CC(C)C)C(=O)N[C@@H](CCCCN)C(=O)N[C@@H](Cc1ccccc1)C(=O)N[C@@H](CS)C(=O)N[C@@H](CCCCN)C(=O)O` has an IC50 of 24.7 µM (Mapk1; enzyme activity, inhibitor, fluorescence; pH 7.4).
`CCN(N=Cc1cnc2ccc(Br)cn12)S(=O)(=O)c1cc([N+](=O)[O-])ccc1C` has an IC50 of 2 µM (PIK3CB (Homo sapiens, UniProt P42338, Y778I); enzyme activity, inhibitor).
With `COC1c2cc(C(C)C)c(O)c(O)c2C23CCCC(C)(C)C2C1OC3=O` (stereo not drawn) the IC50 was 0.00481 µM (CA1; enzyme activity, inhibitor).
`CC[C@H](C)[C@H](NC(=O)[C@@H]1CCCN1C(=O)[C@@H]1CCCN1C(=O)[C@@H]1CCCN1C(=O)[C@@H]1CCCN1C(=O)[C@@H](NC(=O)[C@H](CCCNC(=N)N)NC(=O)[C@H](CO)NC(=O)[C@H](CCCCN)NC(=O)[C@H](CCCCN)NC(=O)[C@H](C)NC(=O)[C@@H](N)Cc1ccc(O)cc1)C(C)C)C(=O)N[C@@H](CC(C)C)C(=O)N[C@@H](CC(C)C)C(=O)N[C@@H](CO)C(=O)N[C@@H](CCCNC(=N)N)C(=O)O` gave an IC50 of 54.3 µM (Mapk1; enzyme activity, inhibitor, fluorescence; pH 7.4).
With `C[C@@H]1COCCN1c1nc(NCc2cccnc2C(F)(F)F)c2cccnc2n1` the IC50 was > 33 µM (SCN5A; ion current, inhibitor).
The IC50 of `CC(C)C[C@H](NC(=O)[C@H](CC(=O)O)NC(=O)[C@@H](N)CC(N)=O)C(=O)N1CCC[C@H]1C(=O)N[C@@H](Cc1ccccc1)C(=O)N[C@H](CCC(=O)O)C(=O)N[C@@H](Cc1ccccc1)C(N)=O` is reported as 1.26 ± 0.174 µM (Transcriptional regulator PlcR (Bacillus thuringiensis, UniProt A0ACM8Q0N2); reporter gene, inhibitor, lacZ reporter; 407 Cry−; 1 h, phase, late exponential, added at).

A few entries again:
`CC(C)C[C@H](NC(=O)[C@H](CCCCN)NC(=O)[C@H](CCCCN)NC(=O)[C@H](CCCCN)NC(=O)[C@H](CCCCN)NC(=O)[C@@H]1CCCN1C(=O)[C@H](CCCNC(=N)N)NC(=O)[C@H](Cc1ccccc1)NC(=O)[C@H](CCCCN)NC(=O)[C@H](CCCCN)NC(=O)[C@H](C)NC(=O)[C@@H](N)Cc1ccc(O)cc1)C(=O)N[C@@H](CCCNC(=N)N)C(=O)N[C@@H](CC(C)C)C(=O)N[C@@H](CC(N)=O)C(=O)N1CCC[C@H]1C(=O)O` gave an IC50 of 19.6 µM (Mapk1; enzyme activity, inhibitor, fluorescence; pH 7.4).
The IC50 of `Cc1ccc(N2CC3CC(C2)N3C)cc1C(=O)NC1(c2ccc3c4c(cccc24)C(=O)N3C)CC1` is reported as > 50 µM (Cytochrome P450 1A2 (CYP1A2, Homo sapiens, UniProt P05177); enzyme activity, inhibitor).
The IC50 of `Cc1ccc(NS(=O)(=O)c2c(C)[nH]c(C)c2C(=O)N2CCCC2)cc1` is reported as > 100 µM (DRD3; Go activation, antagonist, BRET; added: dopamine).
